# Experimental data from different studies.
# Protocols differ between the studies behind these lines.
# Genome polyprotein NS2B-NS3 protease: Genome polyprotein, NS2B-NS3 protease (dengue virus type 2, UniProt P29990)
Compound,target,assay,system,conditions,scale,inhibition [%]
CCCCCCCCCCCCCCCC(=O)N[C@@H](CCCCN)C(=O)N[C@@H](CCCCN)C(=O)N[C@@H](CO)C(=O)N[C@@H](CCCNC(=N)N)C(=O)N[C@@H](C)C(=O)N[C@@H](CC(C)C)C(=O)N[C@@H](Cc1ccccc1)C(N)=O,"F2RL3 (Homo sapiens, UniProt Q96RI0)","platelet aggregation, ex vivo LTA",human,"0.3 mg/kg, 14 days, added: AYPGKF 160 µM",relative to: baseline,15
O=C(Nc1ccc(CNc2ncccn2)cc1)c1cc(-c2ccccc2)n(-c2ccccc2)n1,Genome polyprotein NS2B-NS3 protease,"enzyme activity, fluorogenic AMC substrate",,50 µM,,53
C[Si](C)(C)C[C@@H](CN)CC(=O)O,"ADORA2A (Homo sapiens, UniProt P29274)","ligand displacement, radioligand",,75 µM,,3
NC(=O)c1ccccc1NC(=O)c1cc(-c2ccccc2)n(-c2ccccc2)n1,Genome polyprotein NS2B-NS3 protease,reporter gene,HeLa,12.5 µM,,36
O=C1c2sc(-c3ccc(N4CCC(CO)CC4)nc3F)nc2CCN1c1cccnc1,"CCR2 (Homo sapiens, UniProt P41597)","ligand displacement, radioligand",,1 µM,,3
CN(C)C/C=C/C(=O)Nc1ccc2nc(NCCCCCN(C)C)nc(NCCCCCCN(C)C)c2c1,"BCDIN3D (Homo sapiens, UniProt Q7Z5W3)","enzyme activity, inhibitor, radiometric",,50 µM,,91
N=C(N)NCc1cccc(NC(=O)c2cc(-c3ccccc3)n(-c3ccccc3)n2)c1,Genome polyprotein NS2B-NS3 protease,reporter gene,HeLa,12.5 µM,,34
C/C=C/C(=O)Nc1ccc2nc(NCCCCCN(C)C)nc(NCCCCCCN(C)C)c2c1,"PRMT9 (Homo sapiens, UniProt Q6P2P2)","enzyme activity, inhibitor, radiometric",,50 µM,,70
O=C1c2sc(-c3ccc(N4CCC(F)C4)nc3F)nc2CCN1c1cccnc1 (stereo not drawn),"Mc1r (Mus musculus, UniProt Q01727)","ligand displacement, radioligand",,1 µM,,1

# For quick reference, copied from above:
Compound,target,assay,system,conditions,scale,inhibition [%]
C[Si](C)(C)C[C@@H](CN)CC(=O)O,"ADORA2A (Homo sapiens, UniProt P29274)","ligand displacement, radioligand",,75 µM,,3
